Measurements collected from several papers.
Protocols differ between the studies behind these lines. Values joined by “and” are separate records of one study, mostly repeats; a detail may differ. ± gives the spread as reported.
Ahsg: Alpha-2-HS-glycoprotein (Ahsg, Rattus norvegicus, UniProt P24090)
UniProt P24090, sequence (whole entry, looked up): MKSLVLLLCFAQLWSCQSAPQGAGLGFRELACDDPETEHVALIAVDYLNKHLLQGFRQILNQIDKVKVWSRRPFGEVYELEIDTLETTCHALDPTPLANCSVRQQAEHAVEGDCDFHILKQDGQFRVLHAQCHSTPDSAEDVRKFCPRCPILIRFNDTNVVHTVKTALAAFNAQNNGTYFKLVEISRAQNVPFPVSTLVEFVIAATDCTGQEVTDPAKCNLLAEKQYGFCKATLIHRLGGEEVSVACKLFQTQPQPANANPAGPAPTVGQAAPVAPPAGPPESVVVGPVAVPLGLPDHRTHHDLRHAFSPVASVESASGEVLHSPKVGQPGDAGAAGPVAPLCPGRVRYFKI
Faah: Fatty-acid amide hydrolase 1 (Faah, Mus musculus, UniProt O08914)
UniProt O08914, sequence (whole entry, looked up): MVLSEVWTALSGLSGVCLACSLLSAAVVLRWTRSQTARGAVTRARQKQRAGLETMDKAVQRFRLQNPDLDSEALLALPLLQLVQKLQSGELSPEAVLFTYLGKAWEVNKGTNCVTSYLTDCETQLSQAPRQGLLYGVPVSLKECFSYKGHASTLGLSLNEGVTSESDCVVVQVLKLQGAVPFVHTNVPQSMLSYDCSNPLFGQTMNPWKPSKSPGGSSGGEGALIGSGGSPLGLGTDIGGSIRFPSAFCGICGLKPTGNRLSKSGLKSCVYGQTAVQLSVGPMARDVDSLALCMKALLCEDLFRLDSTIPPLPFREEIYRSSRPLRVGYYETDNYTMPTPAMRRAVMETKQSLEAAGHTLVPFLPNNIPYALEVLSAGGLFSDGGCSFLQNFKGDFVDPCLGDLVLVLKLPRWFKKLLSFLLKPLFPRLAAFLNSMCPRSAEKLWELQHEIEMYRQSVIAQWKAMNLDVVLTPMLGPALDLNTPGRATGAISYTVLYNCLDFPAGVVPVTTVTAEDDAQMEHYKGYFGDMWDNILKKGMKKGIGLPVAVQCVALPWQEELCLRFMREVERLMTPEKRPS
HTR2C: 5-hydroxytryptamine receptor 2C (HTR2C, Homo sapiens, UniProt P28335)
UniProt P28335, sequence (whole entry, looked up): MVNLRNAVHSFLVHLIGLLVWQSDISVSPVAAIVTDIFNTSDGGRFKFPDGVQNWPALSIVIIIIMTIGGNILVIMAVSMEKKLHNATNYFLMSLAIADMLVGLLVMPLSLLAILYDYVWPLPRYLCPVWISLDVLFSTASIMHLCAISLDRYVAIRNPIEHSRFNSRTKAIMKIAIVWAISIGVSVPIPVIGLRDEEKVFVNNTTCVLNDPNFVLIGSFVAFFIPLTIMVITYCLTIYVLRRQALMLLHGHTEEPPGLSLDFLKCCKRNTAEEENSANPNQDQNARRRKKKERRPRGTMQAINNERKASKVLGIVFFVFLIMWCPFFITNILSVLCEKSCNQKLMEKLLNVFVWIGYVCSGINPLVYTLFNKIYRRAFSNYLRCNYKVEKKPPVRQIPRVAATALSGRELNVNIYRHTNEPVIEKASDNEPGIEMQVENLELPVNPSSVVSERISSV
qscR DNA-bound: qscR, DNA-bound (Pseudomonas aeruginosa, UniProt G3XD77)
UniProt D0VWV4, sequence (whole entry, looked up): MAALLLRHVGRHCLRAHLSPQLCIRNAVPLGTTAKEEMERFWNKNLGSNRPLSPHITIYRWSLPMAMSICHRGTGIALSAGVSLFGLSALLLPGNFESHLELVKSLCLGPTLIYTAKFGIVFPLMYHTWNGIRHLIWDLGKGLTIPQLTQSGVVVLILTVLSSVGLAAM
UniProt Q007T0, sequence (whole entry, looked up): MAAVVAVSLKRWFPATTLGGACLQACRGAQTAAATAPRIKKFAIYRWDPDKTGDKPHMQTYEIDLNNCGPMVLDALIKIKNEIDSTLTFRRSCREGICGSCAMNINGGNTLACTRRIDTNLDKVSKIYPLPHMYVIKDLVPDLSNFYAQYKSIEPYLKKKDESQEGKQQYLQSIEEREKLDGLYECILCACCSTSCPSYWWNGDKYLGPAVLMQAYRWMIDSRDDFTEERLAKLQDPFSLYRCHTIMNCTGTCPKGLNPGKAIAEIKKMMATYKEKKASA
UniProt A5GZW8, sequence (whole entry, looked up): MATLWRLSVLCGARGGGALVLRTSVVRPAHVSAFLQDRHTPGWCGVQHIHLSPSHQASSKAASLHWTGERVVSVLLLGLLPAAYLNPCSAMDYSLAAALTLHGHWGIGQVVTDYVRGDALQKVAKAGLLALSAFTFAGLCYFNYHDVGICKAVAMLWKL
UniProt P00942, sequence (whole entry, unmodified, looked up): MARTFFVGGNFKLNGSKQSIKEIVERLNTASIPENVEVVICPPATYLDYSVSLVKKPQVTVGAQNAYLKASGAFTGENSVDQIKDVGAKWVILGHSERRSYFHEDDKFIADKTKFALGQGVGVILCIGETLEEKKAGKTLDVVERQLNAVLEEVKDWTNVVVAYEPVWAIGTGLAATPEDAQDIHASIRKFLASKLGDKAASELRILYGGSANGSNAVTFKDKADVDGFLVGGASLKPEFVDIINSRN
UniProt P45983, sequence (whole entry, looked up): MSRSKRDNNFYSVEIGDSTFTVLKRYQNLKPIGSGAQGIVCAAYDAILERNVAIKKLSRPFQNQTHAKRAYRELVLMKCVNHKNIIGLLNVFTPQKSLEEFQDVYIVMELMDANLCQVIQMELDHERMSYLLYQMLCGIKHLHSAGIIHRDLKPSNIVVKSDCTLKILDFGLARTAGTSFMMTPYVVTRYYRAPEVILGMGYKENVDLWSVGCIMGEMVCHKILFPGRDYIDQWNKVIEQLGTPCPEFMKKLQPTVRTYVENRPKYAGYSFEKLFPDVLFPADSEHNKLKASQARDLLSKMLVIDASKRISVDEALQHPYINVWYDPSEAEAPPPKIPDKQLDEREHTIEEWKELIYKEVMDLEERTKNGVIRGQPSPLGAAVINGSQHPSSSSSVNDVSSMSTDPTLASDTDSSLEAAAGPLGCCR
UniProt Q62351, sequence (whole entry, looked up): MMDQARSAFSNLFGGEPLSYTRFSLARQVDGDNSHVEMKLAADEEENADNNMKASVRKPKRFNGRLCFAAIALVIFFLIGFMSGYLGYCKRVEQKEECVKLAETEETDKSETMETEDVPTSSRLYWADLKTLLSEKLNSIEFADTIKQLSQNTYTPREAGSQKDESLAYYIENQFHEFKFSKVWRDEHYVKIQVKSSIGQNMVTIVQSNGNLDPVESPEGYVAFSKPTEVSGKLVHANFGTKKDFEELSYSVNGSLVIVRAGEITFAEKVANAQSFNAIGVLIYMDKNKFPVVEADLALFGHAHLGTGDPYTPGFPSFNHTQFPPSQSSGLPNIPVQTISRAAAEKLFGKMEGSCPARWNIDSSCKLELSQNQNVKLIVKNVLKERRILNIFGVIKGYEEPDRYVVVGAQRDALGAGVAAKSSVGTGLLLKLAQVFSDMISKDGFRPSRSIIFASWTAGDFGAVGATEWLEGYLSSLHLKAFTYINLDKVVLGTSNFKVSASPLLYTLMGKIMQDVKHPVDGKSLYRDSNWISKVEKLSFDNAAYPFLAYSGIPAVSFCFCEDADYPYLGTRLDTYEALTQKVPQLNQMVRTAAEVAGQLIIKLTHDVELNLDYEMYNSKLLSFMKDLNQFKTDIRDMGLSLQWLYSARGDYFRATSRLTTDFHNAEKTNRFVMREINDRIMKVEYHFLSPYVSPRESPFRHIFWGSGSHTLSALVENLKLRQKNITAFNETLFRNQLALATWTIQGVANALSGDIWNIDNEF
UniProt P28072, sequence (whole entry, looked up): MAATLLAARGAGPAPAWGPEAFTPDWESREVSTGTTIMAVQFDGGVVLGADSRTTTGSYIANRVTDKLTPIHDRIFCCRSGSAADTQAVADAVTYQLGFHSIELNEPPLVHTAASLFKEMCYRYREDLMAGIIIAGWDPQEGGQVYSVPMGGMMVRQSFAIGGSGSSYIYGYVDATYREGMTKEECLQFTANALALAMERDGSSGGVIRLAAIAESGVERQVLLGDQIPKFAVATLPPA
UniProt P49674, sequence (whole entry, looked up): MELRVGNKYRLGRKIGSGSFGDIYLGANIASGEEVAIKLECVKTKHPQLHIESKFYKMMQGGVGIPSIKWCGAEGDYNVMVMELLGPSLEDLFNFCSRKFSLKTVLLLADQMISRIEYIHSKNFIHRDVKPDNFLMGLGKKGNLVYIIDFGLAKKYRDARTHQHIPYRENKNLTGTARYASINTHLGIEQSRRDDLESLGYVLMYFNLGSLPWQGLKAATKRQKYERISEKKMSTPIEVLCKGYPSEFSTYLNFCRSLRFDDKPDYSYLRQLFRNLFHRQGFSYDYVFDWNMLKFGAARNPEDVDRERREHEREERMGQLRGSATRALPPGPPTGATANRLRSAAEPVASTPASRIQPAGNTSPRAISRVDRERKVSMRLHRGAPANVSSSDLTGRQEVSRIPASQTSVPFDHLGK
UniProt P59676, sequence (whole entry, looked up): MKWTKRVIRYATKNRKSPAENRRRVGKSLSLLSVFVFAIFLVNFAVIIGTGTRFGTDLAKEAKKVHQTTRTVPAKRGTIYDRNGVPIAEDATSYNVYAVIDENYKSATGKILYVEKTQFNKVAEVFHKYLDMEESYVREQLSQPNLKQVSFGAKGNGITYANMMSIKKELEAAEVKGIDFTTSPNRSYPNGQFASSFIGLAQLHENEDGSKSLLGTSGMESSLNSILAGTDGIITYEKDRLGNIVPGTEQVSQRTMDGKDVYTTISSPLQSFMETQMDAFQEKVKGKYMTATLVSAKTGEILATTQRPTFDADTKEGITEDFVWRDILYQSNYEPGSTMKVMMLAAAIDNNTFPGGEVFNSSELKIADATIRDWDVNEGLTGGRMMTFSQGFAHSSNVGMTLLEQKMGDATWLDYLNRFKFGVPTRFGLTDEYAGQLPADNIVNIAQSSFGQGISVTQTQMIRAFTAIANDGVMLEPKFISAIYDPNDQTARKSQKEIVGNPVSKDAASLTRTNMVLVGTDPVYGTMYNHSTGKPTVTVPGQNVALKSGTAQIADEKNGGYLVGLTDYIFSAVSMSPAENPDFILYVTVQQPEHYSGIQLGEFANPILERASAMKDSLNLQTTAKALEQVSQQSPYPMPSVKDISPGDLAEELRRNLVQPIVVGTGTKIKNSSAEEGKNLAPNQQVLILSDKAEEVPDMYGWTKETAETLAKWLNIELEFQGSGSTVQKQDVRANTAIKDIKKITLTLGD

SMILES = O=C1c2ccccc2C(=O)C1c1ccccc1; tested on = Oxysterols receptor LXR-alpha (NR1H3, Homo sapiens, UniProt Q13133); setting = concentration not given; measurement = activity; value = inactive
SMILES = O=C(Nc1cnccc1Cl)N1CCN(Cc2ccc3c(c2)OC(F)(F)O3)CC1; tested on = Ahsg; assay = competitive ABPP with azido-FP probe; test system = rat brain soluble fraction; setting = 10 µM, unit not given; scale = relative to: DMSO; measurement = probe labelling; value = -2.2
SMILES = O=C(O)Cc1c[nH]cn1; tested on = Sodium- and chloride-dependent taurine transporter (SLC6A6, Homo sapiens, UniProt P31641, Y138A); assay = binding, microscale thermophoresis; setting = 46.3 nM, fitted curve; scale = higher = more binding; measurement = fraction bound; value = 0.000268
SMILES = NC(=O)c1cccc(-c2cc(OC(=O)NC3CCCCC3)ccc2O)c1; tested on = Faah; assay = liver enzyme activity, inhibitor; test system = mouse; setting = oral; measurement = ED50; value = 0.3 mg/kg
SMILES = Nc1nc2c(ncn2[C@@H]2O[C@@H]3COP(=O)(O)O[C@H]4[C@@H](O)[C@H](n5cnc6c(=O)[nH]c(N)nc65)O[C@@H]4COP(=O)(O)O[C@H]3[C@H]2O)c(=O)[nH]1; tested on = Cell cycle histidine kinase CckA, R374A; cytoplasmic region (Caulobacter vibrioides, UniProt Q9X688, R374A); assay = binding, ITC; setting = added: ADP 5 mM; measurement = ΔH; value = 0.967 ± 0.0567 kcal/mol
SMILES = O=C(O)COP(=O)(O)O; tested on = TPI1 (Saccharomyces cerevisiae, UniProt P00942, S211G/Y208T); assay = enzyme activity, competitive inhibitor, GPDH/NADH-coupled; setting = pH 8.3, 25 °C, ionic strength 0.1 NaCl, added: glyceraldehyde 3-phosphate substrate; scale = relative to: mutant over wild type; measurement = Ki ratio; value = 9
SMILES = O=c1oc(-c2cccc([N+](=O)[O-])c2)ns1; tested on = Proteasome subunit beta type-6 (PSMB6, Homo sapiens, UniProt P28072); assay = enzyme inactivation, inhibitor; test system = human PA28-activated proteasome; measurement = kobs/[I]; value = 1.01 M⁻¹ s⁻¹
SMILES = CN(C(=O)n1cnc(-c2ccc[n+]([O-])c2)c1)C1CCCCC1; tested on = Ahsg; assay = competitive ABPP with azido-FP probe; test system = rat brain soluble fraction; setting = 100 µM, unit not given; scale = relative to: DMSO; measurement = probe labelling; value = -1.1
SMILES = C#Cc1sc2ncn(CC(=O)N3CC(C)(F)C3)c(=O)c2c1-c1ccc(F)c(Br)c1; tested on = Grin1/Grin2b/Glutamate receptor ionotropic, NMDA 2D (Rattus norvegicus, UniProt P35439+Q00960+Q62645); assay = potentiator, TEVC; test system = Xenopus oocytes; setting = 10 µM, triheteromeric receptor; measurement = current potentiation; value = ~280%
SMILES = [2H]c1c([2H])c([C@]2([2H])CCCN2C(=O)C(C)(C)Oc2ccc3cn[nH]c3c2)c([2H])c([2H])c1C([2H])([2H])[2H]; tested on = Calcium/calmodulin-dependent protein kinase type 1D (CAMK1D, Homo sapiens, UniProt Q8IU85); assay = KINOMEscan; setting = 1 µM; scale = relative to: DMSO control; measurement = remaining binding; value = 84%
SMILES = C[C@]1(COC(=O)c2cc(Cl)ccc2O)[C@H](C(=O)O)N2C(=O)/C(=C/c3ccccn3)[C@H]2S1(=O)=O; tested on = Beta-lactamase (blaOXA-33, Acinetobacter baumannii, UniProt Q8RLA6); assay = inhibitor; measurement = kinact; value = 0.04 ± 0.014 s⁻¹
SMILES = CC[C@@H](C)[C@@H](NC(=O)[C@@H](Cc1ccc(O)cc1)NC(=O)[C@H]1CCCN1C(=O)[C@@H](CCCNC(=N)N)NC(=O)[C@H](N)Cc1c[nH]cn1)C(=O)N[C@H](C)C(=O)N[C@H](Cc1c[nH]cn1)C(=O)N[C@H](CCCNC(=N)N)C(=O)N[C@H](CCCCNC(=O)c1cccc(S(=O)(=O)F)c1)C(=O)N[C@H](Cc1ccc(O)cc1)C(=O)N[C@H](CO)C(=O)N[C@H](Cc1ccccc1)C(N)=O; tested on = Transferrin receptor protein 1 (Tfrc, Mus musculus, UniProt Q62351); assay = flow cytometry; test system = DC2.4; setting = 6 h, pH 6, unit not given; scale = relative to: 0 h; measurement = surface TFRC expression; value = 0.896 and 0.914
SMILES = CNC(C)Cc1ccc2nonc2c1 (stereo not drawn); tested on = HTR2C; assay = agonist; scale = relative to: 5-HT; measurement = Emax; value = 71.9 ± 7%
SMILES = CCN1CCN(C(=O)N[C@@H](C(=O)N[C@@H]2C(=O)N3[C@@H]2SC(C)(C)[C@@H]3C(=O)O)c2ccccc2)C(=O)C1=O; tested on = Penicillin-binding protein 2X (Streptococcus pneumoniae R6, UniProt P59676); assay = inhibitor; test system = Streptococcus pneumoniae; measurement = kinact/KI; value = 140000 ± 48000 M⁻¹ s⁻¹
SMILES = CCCCCCCCCCCC(=O)N[C@H]1CCOC1=O; tested on = qscR DNA-bound; assay = DNA binding, ligand, EMSA; setting = saturating ligand; measurement = Hill slope; value = 1.5
SMILES = O=C(c1ccc(Cl)cc1)N1CCN2C(=O)N(OC(=O)N3CCOc4ccccc43)C(=O)C2C1 (stereo not drawn); tested on = Isoamyl acetate-hydrolyzing esterase 1 homolog (IAH1, Homo sapiens, UniProt Q2TAA2); assay = MS-based ABPP; test system = SW-620 conditioned medium; setting = 10 µM, 1 h, 37 °C; scale = relative to: compound over DMSO, lower = more inhibition; measurement = mean protein ratio; value = 0.83
SMILES = CN(C(=O)n1cnc(-c2ccc[n+]([O-])c2)c1)C1CCCCC1; tested on = Faah; assay = enzyme activity, inhibitor, ex vivo; test system = rat, brain; setting = oral, 8 h; measurement = ED50; value = 13.5 mg/kg
SMILES = NC(=O)c1cc[n+](CC2=C(C(=O)O)N3C(=O)[C@@H](NC(=O)[C@@H](c4ccccc4)S(=O)(=O)[O-])[C@H]3SC2)cc1; tested on = Penicillin-binding protein 2a (pbp2a, Streptococcus pneumoniae, UniProt Q8DNB6); assay = inhibitor; measurement = kinact/KI; value = 370 ± 7 M⁻¹ s⁻¹
SMILES = O=C(Nc1nncs1)C(F)(F)Cl; tested on = Mitogen-activated protein kinase 8 (MAPK8, Homo sapiens, UniProt P45983); assay = binding, isothermal titration calorimetry; measurement = association constant; value = 5370 M⁻¹ and 5390 M⁻¹
SMILES = O=C1NC(=O)[C@](CNC(=O)c2cnn(-c3ccccc3)n2)(C2CC2)N1; tested on = Coagulation factor XI (F11, Homo sapiens, UniProt P03951); assay = inhibitor; setting = concentration not given; measurement = activity; value = inactive
SMILES = CCCC(=O)CC(=O)N[C@H]1CCOC1=O; tested on = qscR DNA-bound; assay = DNA binding, ligand, EMSA; setting = saturating ligand; measurement = Hill slope; value = 1.8
SMILES = COc1cc(Nc2ncc(F)c(Nc3ccc4c(n3)NC(=O)C(C)(C)O4)n2)cc(OC)c1OC; tested on = Bone morphogenetic protein receptor type-2 (BMPR2, Homo sapiens, UniProt Q13873); assay = KINOMEscan; setting = 10 µM; measurement = inhibition; value = 73%
SMILES = CC[C@H](C)[C@@H]1NC(=O)[C@@H]2CCCN2C(=O)[C@H](CC(C)C)NC(=O)[C@H](CC(C)C)NC(=O)CNC(=O)[C@@H](NC(=O)[C@@H](NC(=O)[C@H](CC(=O)O)NC(=O)CNC(=O)[C@@H](NC(=O)[C@H](C)NC(=O)CNC(=O)[C@H](CCCCN)NC(=O)[C@H](CC(C)C)NC(=O)[C@H](CC(C)C)NC(=O)[C@H](CCCCN)NC(=O)CNC(=O)[C@@H](NC(=O)[C@@H](N)CC(C)C)C(C)C)C(C)C)C(C)C)CSSC[C@@H](C(=O)O)NC1=O; assay = RNA-seq, measured: Ltb mRNA; test system = mouse traumatic brain injury, frontal cortex and hippocampus; setting = dose not given; scale = relative to: TBI plus compound vs TBI; measurement = log2 fold change; value = -2.55
SMILES = Cc1[nH]c2ccccc2c1-c1csc(-c2c[nH]c3ccccc23)n1; tested on = Regulatory protein E2, DNA-binding domain (Human papillomavirus 16, UniProt P03120); assay = thermal shift; setting = concentration not given; measurement = binding; value = no binding
SMILES = CSc1scc2c1-c1nc(SCC(=O)C(C)(C)C)ncc1CC2; tested on = Dual specificity protein phosphatase 10, catalytic domain (Homo sapiens, UniProt Q9Y6W6); assay = X-ray co-crystal structure; setting = concentration not given; scale = relative to: apo MKP5; measurement = active site volume change; value = ~17%
SMILES = O=c1c(O)c(N2CCN(Cc3ccc(Br)cc3F)CC2)oc2ccccc12; tested on = Mothers against decapentaplegic homolog 3 (Homo sapiens, UniProt P84022, K41A); assay = ITC; setting = concentration not given; measurement = binding; value = no binding
SMILES = COc1ccc(N2C(=O)N(c3c(C)cccc3Cl)Cc3cnc(Nc4ccc(C5CCN(C)CC5)cc4OC)nc32)nc1; tested on = Casein kinase I isoform epsilon (CSNK1E, Homo sapiens, UniProt P49674); assay = kinase activity, inhibitor; setting = 0.5 µM, kinase CK1-EPSILON; measurement = inhibition; value = 4.33%
SMILES = CN1CCN(c2cc(-c3ccncc3)c(-c3ccc4ccccc4c3)nn2)CC1; tested on = HTR2C; assay = agonist, FLIPR; setting = 12.5 µM; measurement = activation; value = 4.4%
SMILES = COc1cc(N)c(Cl)cc1C(=O)NC1CN2CCC1CC2 (stereo not drawn); tested on = KiSS-1 receptor (KISS1R, Homo sapiens, UniProt Q969F8); assay = receptor activation, TANGO luminescence; setting = concentration not given, unconfirmed screen; scale = relative to: vehicle control; measurement = log2 fold change; value = -0.513
SMILES = Cc1ncsc1-c1ccc(CNC(=O)[C@@H]2C[C@@H](O)CN2C(=O)[C@@H](NC(=O)COCCOCCOCCNC(=O)C[C@@H]2N=C(c3ccc(Cl)cc3)c3c(sc(C)c3C)-n3c(C)nnc32)C(C)(C)C)cc1; tested on = VHL-ElonginB-ElonginC complex human; assay = ternary complex formation, fluorescence polarization; setting = added: SMARCA2 bromodomain; measurement = cooperativity factor; value = 0.7
SMILES = Nc1ncnc2c1ncn2[C@@H]1O[C@H](CO)[C@@H](OP(=O)(O)O)[C@H]1O; tested on = Thermonuclease (nuc, Staphylococcus aureus, UniProt P00644); assay = folding kinetics; setting = unit not given; scale = relative to: prAp; measurement = phi value; value = 0 ± 0.1
SMILES = Nc1ncnc2c1ncn2[C@H]1C[C@H](O)[C@@H](COP(=O)(O)OP(=O)(O)OP(=O)(O)O)O1; tested on = Gag-Pol polyprotein, reverse transcriptase (gag-pol, Human immunodeficiency virus type 1 group M subtype B, UniProt P04585); assay = single nucleotide extension, substrate; setting = wild type, T:A matched primer/template; measurement = Km; value = 0.0345 ± 0.00612 µM
SMILES = Nc1ncc(-c2nc(N3CCOCC3)nc(N3CCOCC3)n2)c(C(F)F)n1; tested on = ALK tyrosine kinase receptor (ALK, Homo sapiens, UniProt Q9UM73, C1156Y); assay = KINOMEscan; setting = 10 µM; measurement = remaining binding; value = 32%
SMILES = CC(C)C[C@@H]1NC(=O)[C@H](C(C)C)NC(=O)CNC(=O)[C@H](CC(N)=O)NC(=O)[C@@H]2CCCN2C(=O)[C@H](Cc2ccc(O)cc2)NC(=O)[C@H](CCCNC(=N)N)NC(=O)[C@H](Cc2ccccc2)NC(=O)[C@@H](NC(=O)[C@H](CCCCN)NC(=O)[C@@H]2CCCN2C(=O)[C@H](CO)NC(=O)[C@H](C)NC(=O)[C@@H](N)Cc2ccc(O)cc2)CSSC[C@@H](C(=O)N[C@H](C(N)=O)[C@@H](C)O)NC(=O)[C@H](C)NC1=O; tested on = Alpha-2-HS-glycoprotein, asialo (AHSG, Bos taurus, UniProt P12763); assay = binding, isothermal titration calorimetry; setting = pH 7.0, 25 °C, added: asialofetuin; measurement = -ΔH; value = 3.58 kcal/mol
SMILES = CC[C@H](CO)Nc1nc(NCc2ccc(-c3ccccn3)cc2)c2ncn(C(C)C)c2n1; tested on = Casein kinase I isoform gamma-3 (CSNK1G3, Homo sapiens, UniProt Q9Y6M4); assay = KINOMEscan competition binding; setting = 10 µM, primary screen; scale = direction not given; measurement = binding score; value = 4.6
SMILES = C[C@H]1CN(c2n[nH]c3nc(N[C@H]4CC[C@H](NS(=O)(=O)CCC(F)(F)F)CC4)ncc23)CCO1; tested on = Far upstream element-binding protein 2 (KHSRP, Homo sapiens, UniProt Q92945); assay = inhibitor, Kinobeads competition profiling; setting = 0.032 µM; scale = relative to: vehicle; measurement = relative abundance; value = 0.98
SMILES = O=C[C@H](O)COP(=O)(O)O; tested on = TPI1 (Saccharomyces cerevisiae, UniProt P00942, Y208S); assay = substrate, GPDH/NADH-coupled; setting = pH 4.9, 25 °C; measurement = kcat; value = ~240 s⁻¹
SMILES = C=C(CN(C(=O)c1c(C(F)F)nn(C)c1F)C1CC1)c1ccc(Cl)cc1Cl; tested on = SDHD/SDHC/SDHB (Sus scrofa, UniProt A5GZW8+D0VWV4+Q007T0); assay = enzyme activity, inhibitor, DCIP reduction; test system = pig; setting = 0.2 µM, added: DCIP 20 µM; measurement = reaction velocity; value = 0.0054 µM/s and 0.00538 µM/s and 0.00514 µM/s
SMILES = CC[C@H](C)[C@@H]1NC(=O)[C@H](Cc2c[nH]c3ccccc23)NC(=O)[C@H](Cc2ccc(O)cc2)NC(=O)CSC[C@@H](C(N)=O)NC(=O)[C@H]([C@@H](C)O)NC(=O)[C@H](CO)NC(=O)[C@H](C(C)C)NC(=O)[C@H](Cc2ccc(O)cc2)NC(=O)[C@H](CCCNC(=N)N)NC(=O)[C@H](Cc2ccc(O)cc2)NC(=O)[C@H]([C@@H](C)O)NC(=O)[C@H]([C@@H](C)O)NC(=O)[C@H](Cc2c[nH]c3ccccc23)NC(=O)[C@H](CO)NC(=O)[C@H](CC(N)=O)NC(=O)[C@H](CO)NC1=O; tested on = Vacuolar protein sorting-associated protein 26A/Vacuolar protein sorting-associated protein 35, Vps35 residues 1–390 (Homo sapiens, UniProt O75436+Q96QK1); assay = ITC; setting = 25 °C; measurement = -TΔS; value = -2.5 ± 1.2 kcal/mol
